Published values pooled from the literature.
A part holds a random share of what one study measured. Several values in a cell are separate wells, animals, samples, runs or records.
Chain of UniProt Q5VT25 (whole entry, looked up): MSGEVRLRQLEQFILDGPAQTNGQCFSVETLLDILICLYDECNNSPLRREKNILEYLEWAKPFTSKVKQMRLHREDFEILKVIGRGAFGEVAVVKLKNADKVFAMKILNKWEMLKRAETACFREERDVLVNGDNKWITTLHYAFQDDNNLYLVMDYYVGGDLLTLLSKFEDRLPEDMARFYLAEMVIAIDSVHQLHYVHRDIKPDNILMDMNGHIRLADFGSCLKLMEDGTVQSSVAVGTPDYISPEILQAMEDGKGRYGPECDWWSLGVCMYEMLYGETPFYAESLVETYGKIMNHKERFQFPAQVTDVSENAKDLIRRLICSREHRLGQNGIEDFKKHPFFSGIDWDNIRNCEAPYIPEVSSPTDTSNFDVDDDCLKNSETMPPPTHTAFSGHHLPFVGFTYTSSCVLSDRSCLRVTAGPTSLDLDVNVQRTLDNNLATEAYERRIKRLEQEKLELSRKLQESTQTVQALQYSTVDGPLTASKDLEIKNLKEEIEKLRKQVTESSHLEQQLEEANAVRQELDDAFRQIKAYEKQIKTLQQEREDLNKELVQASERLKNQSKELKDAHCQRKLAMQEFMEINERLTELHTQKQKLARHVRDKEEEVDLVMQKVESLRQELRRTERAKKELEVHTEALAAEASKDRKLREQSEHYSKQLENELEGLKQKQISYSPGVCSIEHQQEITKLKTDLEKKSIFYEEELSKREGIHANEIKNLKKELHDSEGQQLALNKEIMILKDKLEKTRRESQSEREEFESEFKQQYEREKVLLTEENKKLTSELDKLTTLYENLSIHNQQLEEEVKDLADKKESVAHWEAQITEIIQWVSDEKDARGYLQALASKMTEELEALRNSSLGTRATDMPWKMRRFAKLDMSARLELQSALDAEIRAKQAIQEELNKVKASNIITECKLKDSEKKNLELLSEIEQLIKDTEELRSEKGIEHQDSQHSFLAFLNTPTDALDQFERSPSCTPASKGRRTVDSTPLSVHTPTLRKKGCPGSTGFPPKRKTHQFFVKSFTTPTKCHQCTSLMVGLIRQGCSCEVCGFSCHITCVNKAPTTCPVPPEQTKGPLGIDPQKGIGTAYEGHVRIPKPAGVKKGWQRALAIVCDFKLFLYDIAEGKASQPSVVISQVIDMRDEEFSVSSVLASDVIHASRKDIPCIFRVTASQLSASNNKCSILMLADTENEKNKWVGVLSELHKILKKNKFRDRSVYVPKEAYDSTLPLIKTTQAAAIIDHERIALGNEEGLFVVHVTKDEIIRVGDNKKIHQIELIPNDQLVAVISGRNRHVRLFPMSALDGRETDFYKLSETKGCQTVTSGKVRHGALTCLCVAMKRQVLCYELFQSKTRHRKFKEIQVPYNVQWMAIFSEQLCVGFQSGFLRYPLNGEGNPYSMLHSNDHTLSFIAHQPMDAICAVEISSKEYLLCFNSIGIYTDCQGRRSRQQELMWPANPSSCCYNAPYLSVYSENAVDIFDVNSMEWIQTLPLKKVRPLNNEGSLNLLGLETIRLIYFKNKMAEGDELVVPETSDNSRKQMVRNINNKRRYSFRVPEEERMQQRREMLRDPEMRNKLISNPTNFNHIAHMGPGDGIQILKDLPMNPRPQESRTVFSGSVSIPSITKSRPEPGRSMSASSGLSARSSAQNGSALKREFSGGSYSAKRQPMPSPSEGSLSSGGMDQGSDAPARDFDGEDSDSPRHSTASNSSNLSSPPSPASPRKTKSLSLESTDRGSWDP
Chain of UniProt Q00526 (whole entry, looked up): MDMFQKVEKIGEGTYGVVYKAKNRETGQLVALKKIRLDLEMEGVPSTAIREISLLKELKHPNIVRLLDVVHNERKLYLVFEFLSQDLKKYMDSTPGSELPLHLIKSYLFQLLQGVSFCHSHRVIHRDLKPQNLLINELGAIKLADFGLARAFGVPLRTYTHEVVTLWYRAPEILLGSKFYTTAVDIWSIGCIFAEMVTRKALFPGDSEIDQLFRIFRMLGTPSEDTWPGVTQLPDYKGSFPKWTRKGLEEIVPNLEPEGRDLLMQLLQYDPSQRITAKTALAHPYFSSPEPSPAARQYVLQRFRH

Sample 1
SMILES: Oc1ccc(Nc2nc(-c3ccc(Cl)cc3)cs2)cc1
Observed: enzyme activity
Action: inhibitor
Concentration: 0.5 µM
Relative to: control
target	remaining activity [%]
LIM domain kinase 1 (LIMK1, Homo sapiens, UniProt P53667)	90.5
PRKX (Homo sapiens, UniProt P51817)	99.6
NLK (Homo sapiens, UniProt Q9UBE8)	101
NEK11 (Homo sapiens, UniProt Q8NG66)	77.1
FGR (Homo sapiens, UniProt P09769)	96.4
MARK3 (Homo sapiens, UniProt P27448)	95.3
FYN (Homo sapiens, UniProt P06241)	102
FER (Homo sapiens, UniProt P16591)	90.3
Insulin receptor (INSR, Homo sapiens, UniProt P06213)	88.9
FLT4 (Homo sapiens, UniProt P35916)	101
PASK (Homo sapiens, UniProt Q96RG2)	131
PKN1 (Homo sapiens, UniProt Q16512)	99.5
MATK (Homo sapiens, UniProt P42679)	95.5
AKT1 (Homo sapiens, UniProt P31749)	106
STK25 (Homo sapiens, UniProt O00506)	113
SRC (Homo sapiens, UniProt P12931)	95.1
CDC42BPA (Homo sapiens, UniProt Q5VT25)	87.1
Cyclin-dependent kinase 3, with cyclin E (CDK3, Homo sapiens, UniProt Q00526)	99
ALK (Homo sapiens, UniProt Q9UM73)	111
TAOK3 (Homo sapiens, UniProt Q9H2K8)	101
ITK (Homo sapiens, UniProt Q08881)	95.4

Sample 2
Target: DNA polymerase theta, ATPase domain (POLQ, Homo sapiens, UniProt O75417)
Chain of UniProt O75417 (whole entry, unmodified, looked up): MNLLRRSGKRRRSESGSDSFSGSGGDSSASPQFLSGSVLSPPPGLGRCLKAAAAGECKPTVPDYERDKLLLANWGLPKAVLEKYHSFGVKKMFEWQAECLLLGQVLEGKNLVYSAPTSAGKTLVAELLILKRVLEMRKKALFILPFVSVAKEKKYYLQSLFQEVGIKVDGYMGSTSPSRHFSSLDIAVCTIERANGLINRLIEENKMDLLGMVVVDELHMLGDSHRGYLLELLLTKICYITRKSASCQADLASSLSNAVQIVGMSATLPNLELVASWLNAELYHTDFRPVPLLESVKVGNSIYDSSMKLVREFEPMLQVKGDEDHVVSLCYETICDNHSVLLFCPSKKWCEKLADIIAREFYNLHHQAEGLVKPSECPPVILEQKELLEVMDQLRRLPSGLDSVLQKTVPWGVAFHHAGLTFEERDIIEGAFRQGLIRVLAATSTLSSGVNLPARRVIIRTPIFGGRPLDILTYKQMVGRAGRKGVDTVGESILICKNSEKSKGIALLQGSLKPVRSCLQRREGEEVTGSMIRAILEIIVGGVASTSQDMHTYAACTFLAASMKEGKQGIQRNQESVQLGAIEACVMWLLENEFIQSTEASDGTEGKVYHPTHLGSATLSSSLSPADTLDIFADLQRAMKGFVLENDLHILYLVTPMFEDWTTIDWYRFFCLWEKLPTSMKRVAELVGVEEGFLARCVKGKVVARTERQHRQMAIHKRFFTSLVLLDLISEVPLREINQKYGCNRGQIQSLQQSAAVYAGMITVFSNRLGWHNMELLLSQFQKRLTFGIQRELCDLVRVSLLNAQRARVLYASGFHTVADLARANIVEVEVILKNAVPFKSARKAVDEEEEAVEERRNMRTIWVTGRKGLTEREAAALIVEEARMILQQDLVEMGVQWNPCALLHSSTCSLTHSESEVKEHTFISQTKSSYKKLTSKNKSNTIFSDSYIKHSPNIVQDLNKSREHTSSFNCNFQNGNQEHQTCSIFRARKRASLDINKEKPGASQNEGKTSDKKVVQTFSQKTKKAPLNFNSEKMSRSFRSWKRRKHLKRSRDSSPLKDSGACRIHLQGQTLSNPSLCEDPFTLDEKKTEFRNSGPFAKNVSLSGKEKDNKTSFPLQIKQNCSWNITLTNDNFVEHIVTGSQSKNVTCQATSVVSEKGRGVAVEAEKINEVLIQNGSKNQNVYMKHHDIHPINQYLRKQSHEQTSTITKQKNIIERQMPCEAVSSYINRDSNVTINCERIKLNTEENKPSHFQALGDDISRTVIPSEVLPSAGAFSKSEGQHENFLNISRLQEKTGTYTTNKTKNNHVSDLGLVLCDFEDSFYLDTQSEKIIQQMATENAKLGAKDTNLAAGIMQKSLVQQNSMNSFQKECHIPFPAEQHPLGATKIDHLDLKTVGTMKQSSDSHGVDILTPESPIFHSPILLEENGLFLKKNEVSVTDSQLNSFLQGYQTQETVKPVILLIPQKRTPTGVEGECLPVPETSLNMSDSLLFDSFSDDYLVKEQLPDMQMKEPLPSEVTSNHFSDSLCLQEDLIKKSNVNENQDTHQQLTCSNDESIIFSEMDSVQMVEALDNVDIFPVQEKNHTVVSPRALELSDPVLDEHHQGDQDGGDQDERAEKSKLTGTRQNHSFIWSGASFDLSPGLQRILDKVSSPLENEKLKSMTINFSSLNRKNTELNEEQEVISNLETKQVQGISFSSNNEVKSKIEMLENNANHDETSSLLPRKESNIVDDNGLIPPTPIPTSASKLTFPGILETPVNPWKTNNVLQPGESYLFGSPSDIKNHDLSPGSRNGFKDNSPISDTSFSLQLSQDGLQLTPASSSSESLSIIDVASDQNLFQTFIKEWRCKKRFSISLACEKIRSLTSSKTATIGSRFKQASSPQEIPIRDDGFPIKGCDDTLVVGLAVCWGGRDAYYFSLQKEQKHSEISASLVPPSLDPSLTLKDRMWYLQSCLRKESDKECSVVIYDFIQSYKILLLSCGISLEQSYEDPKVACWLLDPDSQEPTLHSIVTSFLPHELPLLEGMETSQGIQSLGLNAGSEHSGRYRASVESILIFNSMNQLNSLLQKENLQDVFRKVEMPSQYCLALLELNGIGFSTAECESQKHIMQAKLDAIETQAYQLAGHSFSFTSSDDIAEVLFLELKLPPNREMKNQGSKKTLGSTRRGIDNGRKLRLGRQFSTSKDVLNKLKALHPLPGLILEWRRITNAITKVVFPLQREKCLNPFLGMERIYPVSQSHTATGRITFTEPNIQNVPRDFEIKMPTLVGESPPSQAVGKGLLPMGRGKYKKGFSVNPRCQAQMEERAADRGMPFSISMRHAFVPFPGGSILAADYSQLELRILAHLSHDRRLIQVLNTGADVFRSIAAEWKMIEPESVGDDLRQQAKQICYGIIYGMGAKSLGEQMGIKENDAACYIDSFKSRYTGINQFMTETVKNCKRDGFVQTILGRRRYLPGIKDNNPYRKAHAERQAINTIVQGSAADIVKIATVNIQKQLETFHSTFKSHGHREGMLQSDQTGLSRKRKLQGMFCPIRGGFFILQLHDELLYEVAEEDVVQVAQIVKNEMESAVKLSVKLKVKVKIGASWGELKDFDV
Observed: enzyme activity
Action: inhibitor
Concentration: 77 µM
Relative to: untreated
SMILES	remaining activity
NCCCS(=O)(=O)O	97.6%
Cc1ccc2nc(NCCN)c3ncc(C)n3c2c1	98%
NS(=O)(=O)c1cccc2c1c([N+](=O)[O-])cc1nc(O)c(O)nc12	101%
COc1cc2ncnc(Nc3ccc(Cl)cc3Cl)c2cc1OC	88.1%
CC1=C(/C=C/C(C)=C/C=C/C(C)=C/C(=O)Nc2ccc(O)cc2)C(C)(C)CCC1	101%
Nc1nc(Nc2ccc(S(N)(=O)=O)cc2)nn1C(=O)c1c(F)cccc1F	99% and 93.8% and 98% and 97.5% and 114%
COc1cccc(NC(=O)/C=C/c2ccc(Cl)cc2)c1	97.3%
CSC(=N)NCCC[C@H](N)C(=O)O	102%
O=c1onc2cnc3ccccc3n12	96.1%
CC[C@H](C)C(=O)O[C@H]1CCC=C2C=C[C@H](C)[C@H](CC[C@@H]3C[C@@H](O)CC(=O)O3)[C@H]21	101% and 98.9%

Sample 3
SMILES: CO[C@@H](C)c1c(Nc2ccc([C@H](N(C)C(=O)C3CCS(=O)(=O)CC3)C(F)(F)F)cc2)cnc2cc(Cl)nn12
Observed: cell-free assay
Method: competition with immobilised ligand
Concentration: 1 µM
target	remaining binding [%]
MAPK4 (Homo sapiens, UniProt P31152)	94
ZAP70 (Homo sapiens, UniProt P43403)	100
MAPK14 (Homo sapiens, UniProt Q16539)	88
EGFR (Homo sapiens, UniProt P00533, L858R/T790M)	80
CASK (Homo sapiens, UniProt O14936)	100
Tyrosine-protein kinase ABL1, phosphorylated (ABL1, Homo sapiens, UniProt P00519, Y253F)	100
AKT2 (Homo sapiens, UniProt P31751)	99
PIK3CG (Homo sapiens, UniProt P48736)	83
TEC (Homo sapiens, UniProt P42680)	84
Ribosomal protein S6 kinase alpha-2, N-terminal kinase domain (RPS6KA2, Homo sapiens, UniProt Q15349)	100
TBK1 (Homo sapiens, UniProt Q9UHD2)	59
FLT3 (Homo sapiens, UniProt P36888, ITD)	71
SRPK1 (Homo sapiens, UniProt Q96SB4)	96
COQ8B (Homo sapiens, UniProt Q96D53)	77

Sample 4
Target: Beta-1 adrenergic receptor (ADRB1, Homo sapiens, UniProt P08588)
Chain of UniProt P08588 (whole entry, looked up): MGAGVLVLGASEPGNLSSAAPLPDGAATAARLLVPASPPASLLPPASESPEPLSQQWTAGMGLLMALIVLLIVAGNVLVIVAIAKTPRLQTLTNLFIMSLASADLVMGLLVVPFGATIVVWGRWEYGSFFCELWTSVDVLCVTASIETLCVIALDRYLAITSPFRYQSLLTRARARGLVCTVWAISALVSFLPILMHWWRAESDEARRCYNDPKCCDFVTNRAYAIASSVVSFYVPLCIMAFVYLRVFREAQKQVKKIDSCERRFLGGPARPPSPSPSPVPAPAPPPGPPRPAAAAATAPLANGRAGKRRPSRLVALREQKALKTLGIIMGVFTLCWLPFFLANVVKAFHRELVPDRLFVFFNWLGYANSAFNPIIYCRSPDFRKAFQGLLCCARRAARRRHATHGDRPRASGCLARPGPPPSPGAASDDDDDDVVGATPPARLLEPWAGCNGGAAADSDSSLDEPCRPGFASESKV
Action: antagonist
Structure (SMILES)	IC50 [µM]
CC(=O)N[S+](=O)([O-])c1ccc(NC(=O)c2cc(-c3ccccc3)nc3ccccc23)cc1	≥ 100
O=C1CCn2nnc(CNc3cccc(C(F)(F)F)c3)c2CN1Cc1ccccc1	≥ 100
COc1ccccc1N1CCN(C(=O)c2ccc3[nH]c4c(c3c2)CCCC4)CC1	≥ 100
Cc1nn2cc(CCNCC3(O)CNCCOC3)nc2s1 (stereo not shown)	≥ 100
O=C1COC[C@H]([C@H](O)c2ccc(NC(=O)c3ccccc3)cc2)N1	≥ 100
Cc1noc2c(-c3ccc(N4CCOCC4)cc3)cc(-c3ccccc3)nc12	≥ 100
CN(C)c1cccc(C(=O)N2CC(COc3ccccc3)C3(C2)CN(C(=O)c2cn[nH]c2)C3)c1 (stereo not shown)	≥ 100
Cn1ccc(Nc2nccc3c(=O)cc(-c4cn[nH]c4)oc23)n1	≥ 100
C[C@H](O)c1onc(-c2ccccc2)c1C(=O)NC1CCOCC1	≥ 100
c1ccc(CCCc2noc(-c3ccc(N4CCCNCC4)nc3)n2)cc1	≥ 100
COc1ccccc1N1CCN(C(=O)C[C@@H]2O[C@H](CNC(=O)c3ccccc3)[C@@H](O)[C@H]2O)CC1	≥ 100
COc1ccccc1N1CCN(CC2CCOCC2)CC1	≥ 100
N#CC(c1ccccc1)c1cnn(-c2ccccc2)c(=O)c1Cl (stereo not shown)	≥ 100
COc1cc(-c2cc(-c3cccs3)nc3c(C)noc23)ccn1	≥ 100
OC(c1ccccc1)c1nc(Nc2ccccc2)n[nH]1 (stereo not shown)	≥ 100
COc1cc(-c2cc(-c3ccccc3)nc3c(C)noc23)ccn1	≥ 100

Excerpt of the above (sample 1):
target	remaining activity [%]
ITK (Homo sapiens, UniProt Q08881)	95.4
SRC (Homo sapiens, UniProt P12931)	95.1
PKN1 (Homo sapiens, UniProt Q16512)	99.5
FYN (Homo sapiens, UniProt P06241)	102
MARK3 (Homo sapiens, UniProt P27448)	95.3
LIM domain kinase 1 (LIMK1, Homo sapiens, UniProt P53667)	90.5
CDC42BPA (Homo sapiens, UniProt Q5VT25)	87.1
PRKX (Homo sapiens, UniProt P51817)	99.6
AKT1 (Homo sapiens, UniProt P31749)	106
